Assay results from different studies.
Lines come from different studies, so protocols differ.

SMILES | assay | system | setting | measurement | result
Cc1cc(OCCOCCC(F)(F)P(=O)(O)O)ccc1CCc1cnc2c(N)nc3cc(CCC(=O)O)ccc3c2c1 | refers to: pyrexia | adults with advanced solid tumours | dose not given, all groups pooled, all grades | patients with non-serious AE | 37.8%
C=CCNc1c(O)cc2c(O)c1C[C@@H](C)C[C@H](OC)[C@H](O)[C@@H](C)/C=C(\C)[C@H](OC(N)=O)[C@@H](OC)/C=C\C=C(/C)C(=O)N2 |  | unresectable or metastatic STS, GIST, other | intravenous, 150 mg/m^2 | patients with diarrhoea TEAE | 0%
N[C@@H]1c2ccccc2OC12CCN(c1cnc3c(N4CCCc5ncccc54)n[nH]c3n1)CC2 |  | advanced solid tumour patients | oral, 50 mg once daily | patients with grade ≥3 TEAE | 33.3%
Nc1nc2cc(-c3ccc4ncc(C(=O)N5CCOCC5)n4c3)ccc2o1 | refers to: Constipation, any cause, all grades | patients with advanced solid tumours | dose not given | patients with adverse events | 33%
CCN(CCO)CCCC(C)Nc1ccnc2cc(Cl)ccc12 (centres unmarked) | refers to: Hyperuricemia grade 3 | newly diagnosed glioblastoma patients | oral, 400 mg/dose, with radiotherapy and temozolomide | patients with adverse event | 14%
CN1CC[C@@H](c2c(O)cc(O)c3c(=O)cc(-c4ccc(C(F)(F)F)cc4Cl)oc23)[C@@H]1CO | refers to: rectal abscess | AML | oral, 100 mg, grade 3 to 4, intermittent dosing | patients with adverse event | 33.3%
C[C@@H]1OC(=O)NN=C1c1ccc(-c2ccc(F)cc2)c(C(F)(F)F)c1 |  | patients, phase I trial | oral, 5 mg once daily, any grade TEAE | patients with non-cardiac chest pain | 0%
O=C1Nc2cc3[nH]nc(-c4ccncc4)c3cc2CN1Cc1ccccc1 | CTCAE v4.03 | advanced solid tumour patients | intravenous, 4.8 mg/kg, schedules 1/2 | patients with dizziness | 50%
CO[C@H]1C[C@@H]2CC[C@@H](C)[C@@](O)(O2)C(=O)C(=O)N2CCCC[C@H]2C(=O)O[C@H]([C@H](C)C[C@@H]2CC[C@@H](OC(=O)NCCOCCOCCOCCOCCOCCOCCOCCOCCC(=O)N3CCc4cc(Cn5nc(-c6ccc7oc(N)nc7c6)c6c(N)ncnc65)ccc4C3)[C@H](OC)C2)C[C@@H](O)[C@H](C)/C=C(\C)[C@@H](O)[C@@H](OC)C(=O)[C@H](C)C[C@H](C)/C=C/C=C/C=C/1C | refers to: grade ≥3 treatment-related mucositis | patients with advanced solid tumours | intravenous, 8 to 12 mg, DM alone, weekly | patients with AE | 15%
CC(=O)c1c(C)c2cnc(Nc3ccc(C4CCN(CCS(C)(=O)=O)CC4)cn3)nc2n(C2CCCC2)c1=O |  | HR+/HER2- advanced breast cancer patients | oral, dose not given, grade 3/4,, sample A patients | patients with neutropenia | 65.4%
COc1c(OCCCN2CCOCC2)ccc2c1N=C(NC(=O)c1cnc(N)nc1)N1CCN=C21 | refers to: Hyponatremia | patients with advanced malignancies | intravenous, dose not given, any grade, all cohorts, with: gemcitabine | patients with adverse event | 26%

Excerpt of the above:
SMILES | assay | system | setting | measurement | result
CC(=O)c1c(C)c2cnc(Nc3ccc(C4CCN(CCS(C)(=O)=O)CC4)cn3)nc2n(C2CCCC2)c1=O |  | HR+/HER2- advanced breast cancer patients | oral, dose not given, grade 3/4,, sample A patients | patients with neutropenia | 65.4%
